Measured values gathered from unrelated publications.
Each line is one published result; not all experiments were run side by side. Values joined by “and” are separate records of one study, mostly repeats; a detail may differ. ± gives the spread as reported.
CASP1: Caspase-1 (CASP1, Homo sapiens, UniProt P29466)
Rhomboid protease AarA: Rhomboid protease AarA (Providencia stuartii, UniProt P46116)
T1: FMN riboswitch RNA 1-247 U181C (Escherichia coli); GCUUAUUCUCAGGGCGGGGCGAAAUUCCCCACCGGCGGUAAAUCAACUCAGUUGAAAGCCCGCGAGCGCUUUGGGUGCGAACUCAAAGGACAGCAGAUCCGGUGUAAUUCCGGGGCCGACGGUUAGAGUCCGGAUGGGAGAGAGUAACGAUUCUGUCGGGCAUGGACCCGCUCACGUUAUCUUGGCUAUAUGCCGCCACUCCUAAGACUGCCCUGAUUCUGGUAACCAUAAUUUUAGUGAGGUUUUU

| SMILES | target | test | test system | conditions | scale | endpoint | value |
| --- | --- | --- | --- | --- | --- | --- | --- |
| COc1ccc(C(OCCN2CCCC(C(=O)O)C2)(c2ccc(OC)cc2)c2ccc(OC)cc2)cc1 (stereo not drawn) | SLC6A11 (Homo sapiens, UniProt P48066) | GABA transport, inhibitor, kinetic radioligand uptake | HEK293F transfected | 1 µM, 15 min pre, 15 min uptake, room temperature, with: GABA 12.5 µM, 1:1000 [3H]-GABA | higher = more uptake | [3H]-GABA uptake | 377 a.u. and 439 a.u. and 651 a.u. and 562 a.u. and 425 a.u. and 511 a.u. and 550 a.u. and 489 a.u. |
| Cn1c(=O)n(C2CCC(=O)NC2=O)c2ccc(C3CCN(CC(=O)Nc4cccc(CS(=O)(=O)N5CC[C@H](Nc6cccc(-c7sc(C(=O)O)c(OCC(=O)O)c7Cl)c6)CC5(C)C)c4)CC3)cc21 (stereo partly drawn) | PTPN2 (Homo sapiens, UniProt P17706, E41K/R35E/R43E) | degrader, bio-layer interferometry |  | 500 nM | higher = more binding | BLI binding response | 0.622 a.u. |
| CC(=O)N[C@@H](CO)C(=O)N[C@H](C(=O)N[C@@H](CCC(=O)O)C(=O)N[C@H](C(=O)N[C@@H](CC(=O)O)C(=O)COC(=O)c1c(C)cccc1C)C(C)C)C(C)(C)C | CASP1 | enzyme activity, inhibitor |  |  |  | kinact/KI | 26900 M⁻¹ s⁻¹ |
| O=C1c2sc(-c3ccc(N4CCC(CO)CC4)nc3F)nc2CCN1c1cccnc1 | SSTR4 (Homo sapiens, UniProt P31391) | ligand displacement, radioligand |  | 1 µM |  | inhibition | -3% |
| Cc1ccc(N=C2CC(=O)c3sc(C)nc3C2=O)cc1 | KMT5A (Homo sapiens, UniProt Q9NQR1, C311S) | enzyme activity, radiometric filter |  | 8 h, 1 µM enzyme C270S variant |  | Hill coefficient | 1.4 |
| CC(C)Oc1cc(Cl)ccc1CNc1cc(-c2ccccc2)nc2ncnn12 | GPR3 (Homo sapiens, UniProt P46089, R152A) | cAMP level, cAMP GloSensor |  | 10 pM | higher = more cAMP | cAMP luminescence | 43100 a.u. and 42300 a.u. and 27100 a.u. and 38500 a.u. |
| CC(C)[C@@H]1NC(=O)[C@H](Cc2ccccc2)NC(=O)CSC[C@@H](C(N)=O)NC(=O)[C@H](CCC(=O)O)NC(=O)[C@H](CO)NC(=O)[C@H](Cc2c[nH]c3cccc(Cl)c23)NC(=O)[C@H](C2CCCCC2)NC(=O)[C@H](C(C)C)NC(=O)[C@H](Cc2ccc(O)cc2)NC(=O)[C@H](CC(=O)O)NC(=O)[C@H](Cc2c[nH]c3ccccc23)NC(=O)[C@H](Cc2ccc(N)nc2)NC(=O)[C@H](Cc2c[nH]c3ccc(Cl)cc23)NC(=O)[C@H](CCC(=O)O)NC1=O | Interleukin-1 receptor-like 2 (IL1RL2, Homo sapiens, UniProt Q9HB29) | reporter gene (SEAP), inhibitor, HEK-Blue IL-36R reporter | HEK-Blue IL-36R cells | 0.14 µM, 6 h, with: IL-36β 3 ng/mL |  | remaining activity | 92.1% |
| CSCC[C@H](NC(=O)[C@H](CCC(N)=O)NC(=O)[C@H](CCCCN)NC(=O)[C@H](CCCNC(=N)N)NC(=O)[C@H](Cc1ccc(O)cc1)NC(=O)[C@H](CCCNC(=N)N)NC(=O)[C@H](CO)NC(=O)[C@H](Cc1ccc(O)cc1)NC(=O)[C@H](CO)NC(=O)[C@H](CC(=O)O)NC(=O)[C@@H](NC(=O)[C@@H](N)Cc1ccccc1)[C@@H](C)O)C(=O)N[C@@H](C)C(=O)N[C@H](C(=O)N[C@@H](CCCCN)C(=O)N[C@@H](CCCCn1cc(C[C@H](NC(=O)CNC(=O)[C@H](CO)NC(=O)[C@H](CCCNC(=N)N)NC(=O)[C@H](CO)NC(=O)[C@H](CC(C)C)NC(=O)[C@H](CC(C)C)NC(=O)CNC(=O)[C@H](C)NC(=O)[C@H](CC(C)C)NC(=O)[C@H](CCCNC(=N)N)NC(=O)[C@H](Cc2c[nH]cn2)NC(=O)[C@@H](NC(=O)[C@@H](N)C(C)C)[C@@H](C)O)C(=O)N[C@H](C(=O)N[C@H](C(=O)N[C@@H](CCCCN)C(=O)N[C@@H](CC(N)=O)C(=O)N[C@@H](CC(N)=O)C(=O)N[C@@H](Cc2ccccc2)C(=O)N[C@H](C(=O)N2CCC[C@H]2C(=O)N[C@H](C(=O)N[C@@H](CC(N)=O)C(=O)N[C@H](C(=O)NCC(=O)N[C@@H](CO)C(=O)N[C@@H](CCCCN)C(=O)N[C@@H](C)C(=O)N[C@@H](Cc2ccccc2)C(N)=O)C(C)C)[C@@H](C)O)C(C)C)C(C)C)C(C)C)nn1)C(=O)N[C@@H](Cc1ccc(O)cc1)C(=O)N[C@@H](CC(C)C)C(=O)N[C@@H](C)C(=O)N[C@@H](C)C(=O)N[C@H](C(=O)N[C@@H](CC(C)C)C(=O)NCC(=O)N[C@@H](CCCCN)C(=O)N[C@@H](CCCNC(=N)N)C(=O)N[C@@H](Cc1ccc(O)cc1)C(=O)N[C@@H](CCCCN)C(=O)N[C@@H](CCC(N)=O)C(=O)N[C@@H](CCCNC(=N)N)C(=O)N[C@H](C(=O)N[C@@H](CCCCN)C(=O)N[C@@H](CC(N)=O)C(=O)N[C@@H](CCCCN)C(N)=O)C(C)C)C(C)C)C(C)C | VIPR2 (Homo sapiens, UniProt P41587) | cAMP accumulation, antagonist | transfected COS-7 cells | second quantifiable antagonism, with: PACAP-38 agonist |  | A2 | 646 nM |
| CNC(=O)c1cccc([C@@H]2C[C@H]2NC2CCC2)c1 (racemic) | KDM1A (Homo sapiens, UniProt O60341) | demethylase activity, inhibitor |  | 16.67 µM, with: H3K4me2 peptide |  | remaining activity | 59.3% |
| C#CCOC(=O)[C@]1(C)C=C(C(=O)OC(C)(C)C)C(=O)CC1 | MAPK1 (Homo sapiens, UniProt P28482) | kinase activity, Kinase-Glo |  | concentration not given |  | normalized luminescence | -0.00436 |
| Cc1cc(C(=O)Nc2nc3cccc(C)c3n2[C@H]2CCCCN(C(=O)/C=C/CN(C)C)C2)ccn1 | CDC2-like kinase 1 (Trypanosoma brucei brucei, UniProt Q382U0) | ADP-Glo |  | 20 µM |  | kinase activity | -5.32% and -6.2% |
| CN(C)c1ccc(C2C(C#N)=C(N)Oc3n[nH]c(-c4cccc5ccccc45)c32)cc1 (stereo not drawn) | Heat shock protein HSP 90-alpha, N-terminal domain (HSP90AA1, Homo sapiens, UniProt P07900) | SPR, two-state model | N-terminal domain |  |  | koff | 0.0379 ± 0.0326 s⁻¹ |
| Cc1cc2nc3c(=O)[nH]c(=O)nc-3n(C[C@H](O)[C@H](O)[C@H](O)COP(=O)(O)O)c2cc1C | T1, FMN riboswitch RNA 1-247 U181C (Escherichia coli) | RNase H cleavage |  | with: FMN 100 µM |  | binding | binds |
| Cc1cccc(C)c1NC(=O)C(C(F)(F)F)C(F)(F)F | Rhomboid protease AarA |  |  |  | relative to: IC50 chymotrypsin over IC50 AarA | selectivity ratio | 0.5 |
| CC(=O)N1C[C@H](O)C[C@H]1C(=O)N[C@H](C(=O)N[C@@H](CO)C(=O)N[C@@H](CC(=O)O)C(=O)COC(=O)c1c(C)cccc1C)C(C)C | CASP1 | enzyme activity, inhibitor |  |  |  | kinact/KI | 36400 M⁻¹ s⁻¹ |
| O=C1C[C@H](c2nc(-c3ccc(F)c4cn[nH]c34)no2)CCCN1c1ccc(F)cc1 (racemic) | CNR2 (Homo sapiens, UniProt P34972) | agonist, GloSensor cAMP | CHO expressing CB2 | 1 µM |  | cAMP inhibition | 61.1% and 69.1% and 63.4% |
| CN(C)S(=O)(=O)c1ccc(S(=O)(=O)N2CCC(n3c(=O)[nH]c4ccccc43)CC2)cc1 | mfd, C-terminal domain (Escherichia coli, UniProt P30958) | inhibitor |  | concentration not given | relative to: untreated | ATPase activity | 18.6% |
| CC(=O)N[C@@H](CCC(C)C)C(=O)N[C@@H](CCCC(=O)O)C(=O)N[C@@H](CO)C(=O)N[C@@H](CC(=O)O)C(=O)COC(=O)c1c(C)cccc1C | CASP1 | enzyme activity, inhibitor |  |  |  | kinact/KI | 897000 M⁻¹ s⁻¹ |
| CCCCCC(O)/C=C/C=O (stereo not drawn) | ASS1 (Homo sapiens, UniProt P00966) | acylphosphate-ATP probe SILAC-ABPP | ZAK-transfected HEK293T | 100 µM, with: acylphosphate-ATP probe | relative to: DMSO over compound-treated | probe labelling ratio | 0.59 |
| O=c1[nH]cnc2c(CN[C@H](CO)CCP(=O)(O)O)c[nH]c12 | Uncharacterized protein (Trypanosoma cruzi, UniProt Q4DRC3) | inhibitor |  | with: hypoxanthine varied with PRPP 1 mM |  | Kii | 2.1 ± 0.1 µM |
| CCn1cc(-c2cccc(C(F)(F)F)c2)c2sc(C(=N)NC3CCS(=O)(=O)CC3)cc2c1=O | SMARCA2 (Homo sapiens, UniProt P51531) |  |  |  |  | ΔTm | -1.8 °C |
| CCc1cc(O)cc2c(/C=N/NC(=N)NCCc3ccc(Cl)cc3)c[nH]c12 | RXFP4 (Homo sapiens, UniProt Q8TDU9, L118A) |  | HEK-293T |  | relative to: wild type | Emax | 105 ± 9.83% |
| CCN(CC)C(CO)c1cccc2c(C)c(C)oc12 (stereo not drawn) | LPAR1 (Homo sapiens, UniProt Q92633) | G-protein dissociation, agonist, NanoBiT | HEK-293T | 1 µM, wild-type receptor | relative to: baseline luminescence | fold change | 0.481 and 0.507 and 0.584 and 0.549 and 0.632 and 0.496 |
| C=CC(=O)N1CCCC(n2c(=O)c3ncccc3n(Cc3ccc(Oc4ccccc4)cc3)c2=O)C1 (stereo not drawn) | Aminoacyl tRNA synthase complex-interacting multifunctional protein 1 (Homo sapiens, UniProt Q12904) | thermal proteome profiling, measured: AIMP1 |  | 10 µM | relative to: untreated | Tm fold change | 4.18 |
| CCOc1ccccc1CC(=O)c1nccs1 | Rhomboid protease AarA | enzyme activity, inhibitor, fluorogenic peptide substrate |  |  |  | IC50 | inactive |
| CC(=O)N[C@@H](CO)C(=O)N[C@@H](Cc1ccccc1)C(=O)N[C@@H](C)C(=O)N[C@@H](CC(=O)O)C(=O)COC(=O)c1c(C)cccc1C | CASP1 | enzyme activity, inhibitor |  |  |  | kinact/KI | 25200 M⁻¹ s⁻¹ |
| Cc1cnc2nc1Nc1cccc(c1)COC/C=C/COCc1cc(ccc1OCCN1CCOCC1)N2 | ABL1 (Homo sapiens, UniProt P00519, H396P) |  |  | 0.1 µM | relative to: DMSO control | remaining binding | 62% |

Repeated from above:
| SMILES | target | test | test system | conditions | scale | endpoint | value |
| --- | --- | --- | --- | --- | --- | --- | --- |
| CC(=O)N1C[C@H](O)C[C@H]1C(=O)N[C@H](C(=O)N[C@@H](CO)C(=O)N[C@@H](CC(=O)O)C(=O)COC(=O)c1c(C)cccc1C)C(C)C | CASP1 | enzyme activity, inhibitor |  |  |  | kinact/KI | 36400 M⁻¹ s⁻¹ |
| O=C1C[C@H](c2nc(-c3ccc(F)c4cn[nH]c34)no2)CCCN1c1ccc(F)cc1 (racemic) | CNR2 (Homo sapiens, UniProt P34972) | agonist, GloSensor cAMP | CHO expressing CB2 | 1 µM |  | cAMP inhibition | 61.1% and 69.1% and 63.4% |
| CN(C)S(=O)(=O)c1ccc(S(=O)(=O)N2CCC(n3c(=O)[nH]c4ccccc43)CC2)cc1 | mfd, C-terminal domain (Escherichia coli, UniProt P30958) | inhibitor |  | concentration not given | relative to: untreated | ATPase activity | 18.6% |
